Measured values gathered from unrelated publications.
Compare with care: the assays were run in different laboratories. In brackets after ≈: the same amount, converted by molar mass.
UniProt Q8WU08, sequence (whole entry, looked up): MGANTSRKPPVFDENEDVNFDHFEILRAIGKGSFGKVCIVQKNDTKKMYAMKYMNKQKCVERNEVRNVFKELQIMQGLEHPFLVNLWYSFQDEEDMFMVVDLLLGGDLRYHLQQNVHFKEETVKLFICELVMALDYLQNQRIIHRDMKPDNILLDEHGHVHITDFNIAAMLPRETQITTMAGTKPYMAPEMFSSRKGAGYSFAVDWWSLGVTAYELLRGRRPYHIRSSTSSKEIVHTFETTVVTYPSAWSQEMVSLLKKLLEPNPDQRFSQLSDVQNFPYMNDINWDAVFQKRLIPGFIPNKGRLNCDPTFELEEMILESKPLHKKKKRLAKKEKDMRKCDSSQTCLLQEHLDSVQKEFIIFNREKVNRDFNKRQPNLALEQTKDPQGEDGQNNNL
UniProt O00750, sequence (whole entry, looked up): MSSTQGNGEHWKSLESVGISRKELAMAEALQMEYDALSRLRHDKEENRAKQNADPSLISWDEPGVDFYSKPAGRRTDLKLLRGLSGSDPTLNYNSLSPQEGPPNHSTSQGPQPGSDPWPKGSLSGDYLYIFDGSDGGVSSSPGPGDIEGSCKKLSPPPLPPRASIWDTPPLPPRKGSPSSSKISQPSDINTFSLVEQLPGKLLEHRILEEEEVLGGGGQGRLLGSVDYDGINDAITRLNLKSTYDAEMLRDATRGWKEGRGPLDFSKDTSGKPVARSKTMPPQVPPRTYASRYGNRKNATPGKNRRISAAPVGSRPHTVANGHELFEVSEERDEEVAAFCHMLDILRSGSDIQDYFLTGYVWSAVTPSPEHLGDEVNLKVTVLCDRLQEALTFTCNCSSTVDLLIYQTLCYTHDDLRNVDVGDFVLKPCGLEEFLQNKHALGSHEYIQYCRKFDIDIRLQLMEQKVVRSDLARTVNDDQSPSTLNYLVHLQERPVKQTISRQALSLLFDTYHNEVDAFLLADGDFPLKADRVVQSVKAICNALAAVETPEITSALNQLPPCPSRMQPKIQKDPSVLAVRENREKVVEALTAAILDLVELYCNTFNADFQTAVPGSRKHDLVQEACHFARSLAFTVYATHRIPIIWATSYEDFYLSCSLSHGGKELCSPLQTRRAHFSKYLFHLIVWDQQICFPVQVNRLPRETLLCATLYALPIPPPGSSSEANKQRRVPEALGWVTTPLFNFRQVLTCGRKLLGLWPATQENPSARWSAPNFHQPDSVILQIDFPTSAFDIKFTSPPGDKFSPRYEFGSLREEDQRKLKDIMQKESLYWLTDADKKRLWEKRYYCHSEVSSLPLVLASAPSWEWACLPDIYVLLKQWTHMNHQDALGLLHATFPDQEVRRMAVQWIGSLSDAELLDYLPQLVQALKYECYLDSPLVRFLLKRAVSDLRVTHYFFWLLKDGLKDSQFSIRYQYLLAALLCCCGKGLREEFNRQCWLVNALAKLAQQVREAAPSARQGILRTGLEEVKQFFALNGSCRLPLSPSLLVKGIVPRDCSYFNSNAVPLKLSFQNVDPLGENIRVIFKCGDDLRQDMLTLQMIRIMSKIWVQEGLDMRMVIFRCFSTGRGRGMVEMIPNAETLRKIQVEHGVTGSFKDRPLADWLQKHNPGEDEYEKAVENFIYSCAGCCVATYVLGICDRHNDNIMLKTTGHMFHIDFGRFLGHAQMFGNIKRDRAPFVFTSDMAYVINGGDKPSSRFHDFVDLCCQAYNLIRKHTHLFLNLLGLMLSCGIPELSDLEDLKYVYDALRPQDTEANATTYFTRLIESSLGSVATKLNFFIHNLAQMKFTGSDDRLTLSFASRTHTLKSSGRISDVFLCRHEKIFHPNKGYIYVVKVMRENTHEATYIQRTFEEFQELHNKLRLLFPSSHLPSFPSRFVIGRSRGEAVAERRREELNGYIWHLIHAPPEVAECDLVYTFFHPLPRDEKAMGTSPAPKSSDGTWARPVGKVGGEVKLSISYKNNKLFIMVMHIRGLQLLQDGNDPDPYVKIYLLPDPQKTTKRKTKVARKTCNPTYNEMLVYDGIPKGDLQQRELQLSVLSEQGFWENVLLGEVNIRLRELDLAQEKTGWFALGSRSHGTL
UniProt O14730, sequence (whole entry, looked up): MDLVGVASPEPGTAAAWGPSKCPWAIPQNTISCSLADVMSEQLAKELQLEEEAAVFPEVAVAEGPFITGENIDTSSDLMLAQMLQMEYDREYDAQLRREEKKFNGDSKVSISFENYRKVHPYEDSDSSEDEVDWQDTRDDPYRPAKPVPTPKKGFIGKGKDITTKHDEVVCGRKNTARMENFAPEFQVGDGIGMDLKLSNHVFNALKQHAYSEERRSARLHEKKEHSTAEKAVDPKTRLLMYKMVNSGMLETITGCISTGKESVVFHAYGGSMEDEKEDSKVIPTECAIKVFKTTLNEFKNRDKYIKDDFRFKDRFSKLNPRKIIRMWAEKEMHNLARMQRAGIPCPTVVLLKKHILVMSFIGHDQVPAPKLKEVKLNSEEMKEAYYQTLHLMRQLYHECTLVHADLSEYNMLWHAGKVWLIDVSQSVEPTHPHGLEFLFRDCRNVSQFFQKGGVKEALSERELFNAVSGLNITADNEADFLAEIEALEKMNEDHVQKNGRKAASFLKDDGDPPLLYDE

| SMILES | target or system | test | test system | conditions | endpoint | result |
| --- | --- | --- | --- | --- | --- | --- |
| Nc1ncc(-c2nc(N3CCOCC3)nc(N3CCOCC3)n2)c(C(F)F)n1 | PIK3C2B (Homo sapiens, UniProt O00750) | binding, competition with immobilised ligand |  | 10 µM | remaining binding | 0.75% |
| [2H]c1c([2H])c([C@]2([2H])CCCN2C(=O)C(C)(C)Oc2ccc3cn[nH]c3c2)c([2H])c([2H])c1C([2H])([2H])[2H] | STK32A (Homo sapiens, UniProt Q8WU08) | binding, competition with immobilised ligand |  | 1 µM | remaining binding | 97% |
| CC(C)(C)C(O)(CCc1ccc(Cl)cc1)Cn1cncn1 (stereo not drawn) | Botrytis cinerea | microbial growth |  | 200 µg/mL | inhibition | 100% |
| CC(=O)N1CCN(c2ccc(OCC3COC(Cn4ccnc4)(c4ccc(Cl)cc4Cl)O3)cc2)CC1 (stereo not drawn) | Candida albicans | microbial killing, broth dilution | SP3876 | 48 h | MFC | > 64 µM |
| CO/C=C(/C(=O)OC)c1ccccc1Oc1cc(Oc2ccccc2C#N)ncn1 | Rhizoctonia solani | microbial growth |  |  | EC50 | > 50 µg/mL |
| COC(=O)c1cc(-c2cccc(NC(=S)NC3CCCCC3)c2)on1 | Pseudomonas aeruginosa | microbial growth, broth dilution | ATCC27853 |  | MIC | > 64 µg/mL |
| C#Cc1ccc(O)c(C=NNC(=O)c2ccc(Br)c(Br)c2)c1 | Candida albicans | microbial growth |  | pH 7.4 | MIC80 | 0.25 µg/mL (≈ 0.592 µM) |
| CC(=O)c1c(Cc2ccccc2Cl)c[nH]c1C | Plasmodium falciparum | parasite growth, SYBR Green | 3D7 | 72 h | EC50 | 165 nM |
| C#Cc1ccc(C=NNC(=O)c2ccc(Br)c(Br)c2)c(O)c1 | Candida albicans | microbial growth |  | pH 7.4 | MIC80 | 8 µg/mL (≈ 19 µM) |
| CCCCCCNC(=S)Nc1cccc(-c2cc(C(=O)OC)no2)c1 | Klebsiella pneumoniae | microbial growth, broth dilution | BAA1705 |  | MIC | > 64 µg/mL |
| O=C(NCCc1ncc(C(F)(F)F)cc1Cl)c1ccccc1C(F)(F)F | Rhizoctonia solani | microbial growth |  |  | EC50 | > 50 µg/mL |
| c1nc2nc3c(c(Nc4ccc5c(c4)CCC5)n2n1)CCC3 | Plasmodium falciparum | parasite growth, SYBR Green | 3D7 | 72 h | EC50 | 7080 nM |
| CCCCNC[C@H](O)c1cc(Cl)cc2c1-c1ccc(Cl)cc1C2 | Plasmodium falciparum | parasite growth, SYBR Green | W2 | 48 h, drug-resistant strain, blood stage | IC50 | 18.8 nM |
| CCCn1c(O)nnc1SCC(=O)Nc1cc(Cl)ccc1Cl | Plasmodium falciparum | parasite growth, SYBR Green | 3D7 | 72 h | EC50 | 1560 nM |
| CC[C@H](C)C[C@H](C)CCCCCCCCC(=O)N[C@H]1C[C@@H](O)[C@@H](NCCN)NC(=O)[C@@H]2[C@@H](O)CCN2C(=O)[C@H]([C@H](O)CCN)NC(=O)[C@H]([C@H](O)[C@@H](O)c2ccc(O)cc2)NC(=O)[C@@H]2C[C@@H](O)CN2C(=O)[C@H]([C@@H](C)O)NC1=O | Candida tropicalis | microbial killing, broth dilution | ATCC13803 | 48 h | MFC | 1 µg/mL |
| COC(=O)c1cc(-c2cccc(NC(=S)Nc3ccc(F)c(Cl)c3)c2)on1 | Klebsiella pneumoniae | microbial growth, broth dilution | BAA1705 |  | MIC | > 64 µg/mL |
| C#Cc1ccc(O)c(C=NNC(=O)c2ccc(Br)cc2Br)c1 | Cryptococcus neoformans | microbial growth, broth dilution |  | pH 7.4 | MIC80 | 0.03 µg/mL (≈ 0.0711 µM) |
| O=C(NNc1cc(F)ccc1F)c1nnc(CC23CC4CC(CC(C4)C2)C3)o1 | Rhizoctonia solani | microbial growth |  | 50 µg/mL | inhibition | 100% |
| COC(=O)c1cc(-c2cccc(NC(=S)Nc3cccc(Cl)c3)c2)on1 | Pseudomonas aeruginosa | microbial growth, broth dilution | ATCC27853 |  | MIC | > 64 µg/mL |
| C#Cc1ccc(O)c(C=NNC(=O)c2ccc(Br)cc2)c1 | Cryptococcus neoformans | microbial killing |  |  | MFC | 1 µg/mL |
| Cc1nn(C)cc1-c1nc2c(N3CCN(Cc4ccc(Cl)cc4)CC3)c(Cl)cnc2[nH]1 | RIOK3 (Homo sapiens, UniProt O14730) | binding, competition with immobilised ligand |  | 1 µM | remaining binding | 2.8% |
| COC(=O)c1cc(-c2cccc(NC(=S)Nc3ccc(Cl)cc3)c2)on1 | Mycolicibacterium fortuitum | microbial growth, broth dilution | ATCC6841 | 48 h | MIC | > 64 µg/mL |
| C[C@H]1[C@@H](O)O[C@@H]2O[C@@]3(C)CC[C@H]4[C@H](C)CC[C@@H]1[C@@]24OO3 | Plasmodium falciparum | parasite growth, SYBR Green | 3D7 | 72 h | EC50 | 22.6 nM |
| COC(=O)c1cc(-c2cccc(NC(=O)Nc3ccc(C)cc3)c2)on1 | Mycolicibacterium fortuitum | microbial growth, broth dilution | ATCC6841 | 48 h | MIC | > 64 µg/mL |
| C#Cc1cc(O)c(C=NNC(=O)c2ccc(Br)cc2Br)cc1C#C | Candida albicans | microbial growth |  | pH 7.4 | MIC80 | 16 µg/mL (≈ 35.9 µM) |
| Cc1sc2c(=O)n(O)c(=O)[nH]c2c1C | Human betaherpesvirus 5 | viral replication, inhibitor |  | 10 µM, 7 days | inhibition | -42% |
| COC(=O)c1cc(-c2cccc(NC(=O)Nc3cc(OC)ccc3OC)c2)on1 | Mycobacteroides chelonae | microbial growth, broth dilution | ATCC35752 | 48 h | MIC | > 64 µg/mL |

Excerpt of the above:
| SMILES | target or system | test | test system | conditions | endpoint | result |
| --- | --- | --- | --- | --- | --- | --- |
| C[C@H]1[C@@H](O)O[C@@H]2O[C@@]3(C)CC[C@H]4[C@H](C)CC[C@@H]1[C@@]24OO3 | Plasmodium falciparum | parasite growth, SYBR Green | 3D7 | 72 h | EC50 | 22.6 nM |
| CCCn1c(O)nnc1SCC(=O)Nc1cc(Cl)ccc1Cl | Plasmodium falciparum | parasite growth, SYBR Green | 3D7 | 72 h | EC50 | 1560 nM |
| C#Cc1ccc(O)c(C=NNC(=O)c2ccc(Br)c(Br)c2)c1 | Candida albicans | microbial growth |  | pH 7.4 | MIC80 | 0.25 µg/mL (≈ 0.592 µM) |
